Experimental data pooled from the literature.
A part holds a random share of what one study measured. Values joined by “and” are separate records of one study, mostly repeats; a detail may differ.
UniProt Q5S007, sequence (whole entry, unmodified, looked up): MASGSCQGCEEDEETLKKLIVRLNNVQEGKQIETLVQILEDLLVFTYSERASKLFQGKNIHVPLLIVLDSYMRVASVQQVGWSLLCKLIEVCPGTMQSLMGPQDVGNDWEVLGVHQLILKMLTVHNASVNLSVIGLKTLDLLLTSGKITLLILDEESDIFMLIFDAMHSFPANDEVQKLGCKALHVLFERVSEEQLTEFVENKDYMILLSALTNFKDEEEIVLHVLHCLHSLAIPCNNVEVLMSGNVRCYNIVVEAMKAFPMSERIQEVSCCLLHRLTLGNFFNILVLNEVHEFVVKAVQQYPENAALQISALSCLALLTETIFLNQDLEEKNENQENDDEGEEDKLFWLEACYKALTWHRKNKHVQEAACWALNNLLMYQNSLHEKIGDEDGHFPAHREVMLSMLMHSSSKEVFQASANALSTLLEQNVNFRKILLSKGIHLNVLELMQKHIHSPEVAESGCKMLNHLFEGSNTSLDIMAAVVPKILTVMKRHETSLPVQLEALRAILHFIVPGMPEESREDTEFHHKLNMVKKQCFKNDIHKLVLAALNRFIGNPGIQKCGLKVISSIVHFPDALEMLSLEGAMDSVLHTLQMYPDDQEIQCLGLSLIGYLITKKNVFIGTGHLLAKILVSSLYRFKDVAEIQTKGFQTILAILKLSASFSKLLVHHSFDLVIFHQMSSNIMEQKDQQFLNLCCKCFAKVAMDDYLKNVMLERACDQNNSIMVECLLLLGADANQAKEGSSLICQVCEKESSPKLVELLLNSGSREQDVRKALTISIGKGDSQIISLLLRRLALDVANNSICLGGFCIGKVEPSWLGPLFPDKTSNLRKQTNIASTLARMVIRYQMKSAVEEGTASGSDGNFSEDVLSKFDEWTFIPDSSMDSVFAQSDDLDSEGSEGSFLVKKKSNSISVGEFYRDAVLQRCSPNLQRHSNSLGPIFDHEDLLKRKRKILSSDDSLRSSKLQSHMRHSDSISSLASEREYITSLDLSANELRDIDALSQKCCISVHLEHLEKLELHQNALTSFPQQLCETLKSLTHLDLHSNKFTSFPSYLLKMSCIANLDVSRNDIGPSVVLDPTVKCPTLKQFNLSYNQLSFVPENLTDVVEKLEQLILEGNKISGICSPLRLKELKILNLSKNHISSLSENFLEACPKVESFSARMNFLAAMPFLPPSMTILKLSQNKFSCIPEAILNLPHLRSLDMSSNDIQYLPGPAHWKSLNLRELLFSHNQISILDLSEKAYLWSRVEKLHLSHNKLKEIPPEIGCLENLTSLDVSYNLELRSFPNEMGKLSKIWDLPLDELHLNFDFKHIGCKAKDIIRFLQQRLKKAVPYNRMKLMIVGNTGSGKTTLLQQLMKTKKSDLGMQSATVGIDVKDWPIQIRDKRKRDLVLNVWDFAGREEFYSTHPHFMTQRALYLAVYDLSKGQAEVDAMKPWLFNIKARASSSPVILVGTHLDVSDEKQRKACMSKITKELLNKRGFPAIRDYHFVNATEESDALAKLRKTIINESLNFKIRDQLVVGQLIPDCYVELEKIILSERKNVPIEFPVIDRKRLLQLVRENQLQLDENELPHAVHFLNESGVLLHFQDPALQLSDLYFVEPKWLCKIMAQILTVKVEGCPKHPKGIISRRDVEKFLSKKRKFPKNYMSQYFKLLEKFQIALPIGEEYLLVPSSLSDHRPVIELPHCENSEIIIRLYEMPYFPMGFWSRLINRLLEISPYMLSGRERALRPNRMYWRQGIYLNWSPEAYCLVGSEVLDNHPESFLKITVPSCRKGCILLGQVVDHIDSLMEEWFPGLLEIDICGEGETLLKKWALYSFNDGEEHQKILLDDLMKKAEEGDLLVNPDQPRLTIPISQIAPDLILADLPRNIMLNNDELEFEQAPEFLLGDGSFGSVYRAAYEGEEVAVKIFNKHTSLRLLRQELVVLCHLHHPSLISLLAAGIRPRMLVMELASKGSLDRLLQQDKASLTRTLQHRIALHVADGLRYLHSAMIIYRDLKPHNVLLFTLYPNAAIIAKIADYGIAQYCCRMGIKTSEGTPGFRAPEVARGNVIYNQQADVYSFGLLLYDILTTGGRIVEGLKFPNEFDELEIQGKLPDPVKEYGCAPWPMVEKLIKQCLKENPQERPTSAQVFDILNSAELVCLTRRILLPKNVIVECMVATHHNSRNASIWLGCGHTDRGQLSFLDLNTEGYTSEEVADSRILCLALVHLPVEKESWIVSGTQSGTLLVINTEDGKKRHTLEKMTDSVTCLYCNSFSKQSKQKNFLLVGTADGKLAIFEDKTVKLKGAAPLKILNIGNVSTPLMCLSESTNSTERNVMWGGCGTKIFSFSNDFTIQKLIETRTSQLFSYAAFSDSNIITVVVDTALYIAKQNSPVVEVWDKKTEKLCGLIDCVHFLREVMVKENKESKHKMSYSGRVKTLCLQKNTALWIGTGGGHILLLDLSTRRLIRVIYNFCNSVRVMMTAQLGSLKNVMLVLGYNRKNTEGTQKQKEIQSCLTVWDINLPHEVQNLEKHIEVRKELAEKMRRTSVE
UniProt P15056, sequence (whole entry, unmodified, looked up): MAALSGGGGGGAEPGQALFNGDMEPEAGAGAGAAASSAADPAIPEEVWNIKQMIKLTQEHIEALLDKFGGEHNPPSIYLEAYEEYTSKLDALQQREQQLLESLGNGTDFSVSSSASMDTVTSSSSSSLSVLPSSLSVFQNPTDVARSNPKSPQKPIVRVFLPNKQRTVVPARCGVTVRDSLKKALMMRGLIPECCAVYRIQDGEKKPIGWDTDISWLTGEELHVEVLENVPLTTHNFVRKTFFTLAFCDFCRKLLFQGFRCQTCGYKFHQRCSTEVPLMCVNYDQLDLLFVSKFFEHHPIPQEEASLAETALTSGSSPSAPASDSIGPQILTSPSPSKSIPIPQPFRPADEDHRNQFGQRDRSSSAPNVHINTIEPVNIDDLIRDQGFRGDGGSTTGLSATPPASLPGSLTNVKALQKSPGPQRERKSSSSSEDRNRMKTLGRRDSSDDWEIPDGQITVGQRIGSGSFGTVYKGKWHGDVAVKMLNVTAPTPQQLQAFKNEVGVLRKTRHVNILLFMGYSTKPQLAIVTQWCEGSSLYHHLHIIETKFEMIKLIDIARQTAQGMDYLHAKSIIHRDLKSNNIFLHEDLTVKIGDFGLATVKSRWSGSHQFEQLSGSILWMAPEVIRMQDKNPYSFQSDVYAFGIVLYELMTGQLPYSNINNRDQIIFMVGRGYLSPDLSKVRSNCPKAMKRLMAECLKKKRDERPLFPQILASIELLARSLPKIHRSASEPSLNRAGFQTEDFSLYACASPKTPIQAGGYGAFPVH
UniProt O75716, sequence (whole entry, looked up): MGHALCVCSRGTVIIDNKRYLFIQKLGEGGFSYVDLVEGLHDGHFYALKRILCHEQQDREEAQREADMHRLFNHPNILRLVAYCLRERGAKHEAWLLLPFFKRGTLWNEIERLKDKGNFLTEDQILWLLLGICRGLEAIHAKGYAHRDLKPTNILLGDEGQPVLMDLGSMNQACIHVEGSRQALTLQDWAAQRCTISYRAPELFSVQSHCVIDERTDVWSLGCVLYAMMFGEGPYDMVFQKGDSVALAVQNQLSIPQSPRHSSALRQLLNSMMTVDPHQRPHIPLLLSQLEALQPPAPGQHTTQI
UniProt Q9HBH9, sequence (whole entry, looked up): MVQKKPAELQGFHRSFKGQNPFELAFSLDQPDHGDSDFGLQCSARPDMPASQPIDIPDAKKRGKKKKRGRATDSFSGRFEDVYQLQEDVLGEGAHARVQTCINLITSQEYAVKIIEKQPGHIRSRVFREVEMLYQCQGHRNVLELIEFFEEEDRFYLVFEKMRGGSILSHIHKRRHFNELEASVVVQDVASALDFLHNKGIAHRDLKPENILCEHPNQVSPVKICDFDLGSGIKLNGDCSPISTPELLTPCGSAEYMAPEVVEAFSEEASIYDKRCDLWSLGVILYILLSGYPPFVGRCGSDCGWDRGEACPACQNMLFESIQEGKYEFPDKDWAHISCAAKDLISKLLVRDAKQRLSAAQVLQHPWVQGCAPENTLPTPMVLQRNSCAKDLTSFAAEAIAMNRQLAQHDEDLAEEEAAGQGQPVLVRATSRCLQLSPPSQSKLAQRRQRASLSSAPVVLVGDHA
UniProt Q96NX5, sequence (whole entry, looked up): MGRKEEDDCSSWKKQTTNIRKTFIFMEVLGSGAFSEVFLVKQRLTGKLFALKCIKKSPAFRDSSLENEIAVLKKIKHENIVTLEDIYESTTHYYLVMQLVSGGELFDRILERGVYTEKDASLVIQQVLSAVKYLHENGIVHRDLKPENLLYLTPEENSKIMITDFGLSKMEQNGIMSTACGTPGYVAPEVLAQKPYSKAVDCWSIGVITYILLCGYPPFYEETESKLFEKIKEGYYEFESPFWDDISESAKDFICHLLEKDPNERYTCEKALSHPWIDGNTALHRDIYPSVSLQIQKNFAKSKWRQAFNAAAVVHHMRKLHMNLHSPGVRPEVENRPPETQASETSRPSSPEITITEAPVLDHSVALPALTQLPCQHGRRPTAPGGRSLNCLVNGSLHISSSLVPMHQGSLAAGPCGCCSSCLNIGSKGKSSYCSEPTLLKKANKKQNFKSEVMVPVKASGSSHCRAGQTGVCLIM

Study 1
Organism: Sarcocystis neurona
Read-out: parasite growth
Concentration: 10 µM
Time: 96 h
Notes: first screen
Relative to: untreated
Compound | log2 fold change
O=C(c1ccc(OCCN2CCCCC2)cc1)c1c(-c2ccc(O)cc2)sc2cc(O)ccc12 | -0.27
CC(=O)OCC(=O)[C@@]12OC(C)(C)O[C@@H]1C[C@H]1[C@@H]3C[C@H](F)C4=CC(=O)C=C[C@]4(C)[C@@]3(F)[C@@H](O)C[C@@]12C | 0.19
NS(=O)(=O)Cc1noc2ccccc12 | 0.15
CCC(=O)OCC(=O)[C@@]1(OC(=O)CC)[C@@H](C)C[C@H]2[C@@H]3CCC4=CC(=O)C=C[C@]4(C)[C@@]3(Cl)[C@@H](O)C[C@@]21C | 0.25
CC[C@H]1OC(=O)[C@H](C)[C@@H](O[C@H]2C[C@@](C)(OC)[C@@H](O)[C@H](C)O2)[C@H](C)[C@@H](O[C@@H]2O[C@H](C)C[C@H](N(C)C)[C@H]2O)[C@](C)(O)C[C@@H](C)CN(C)[C@H](C)[C@@H](O)[C@]1(C)O | -0.15
Nc1ccc(O)c(C(=O)O)c1 | 0.12
CN(C)[C@@H]1C(O)=C(C(=O)NCN2CCCC2)C(=O)[C@@]2(O)C(O)=C3C(=O)c4c(O)cccc4[C@@](C)(O)[C@H]3C[C@@H]12 | 0.09

Study 2
Structure (SMILES): COc1ccc2c(c1)c(C1=C(c3c[nH]c4ccccc34)C(=O)NC1=O)cn2CCCN(C)C
Read-out: enzyme activity
Mode: inhibitor
Concentration: 0.5 µM
Relative to: control
target | remaining activity [%]
Leucine-rich repeat serine/threonine-protein kinase 2 (LRRK2, Homo sapiens, UniProt Q5S007) | 87
MAP kinase-interacting serine/threonine-protein kinase 2 (MKNK2, Homo sapiens, UniProt Q9HBH9) | 81.1
Mitogen-activated protein kinase 13 (MAPK13, Homo sapiens, UniProt O15264) | 108
cGMP-dependent protein kinase 1 (PRKG1, Homo sapiens, UniProt Q13976) | 99.5
Protein kinase C delta type (PRKCD, Homo sapiens, UniProt Q05655) | 1.67
Dual specificity mitogen-activated protein kinase kinase 6 (MAP2K6, Homo sapiens, UniProt P52564) | 91.6

Study 3
SMILES: CCCCN(CCCC)C(=O)CN1C[C@@H](c2cc(OC)c3c(c2)OCO3)[C@H](C(=O)O)[C@H]1CC(C)(C)CCC
Read-out: cell-free assay
Method: competition with immobilised ligand
Concentration: 1 µM
target | remaining binding
Calcium/calmodulin-dependent protein kinase type II subunit gamma (CAMK2G, Homo sapiens, UniProt Q13555) | 94.3%
Serine/threonine-protein kinase 16 (STK16, Homo sapiens, UniProt O75716) | 100%
Serine/threonine-protein kinase BRSK2 (BRSK2, Homo sapiens, UniProt Q8IWQ3) | 98.3%
Insulin receptor (INSR, Homo sapiens, UniProt P06213) | 89%
Calcium/calmodulin-dependent protein kinase type 1G (CAMK1G, Homo sapiens, UniProt Q96NX5) | 100%
Calcium/calmodulin-dependent protein kinase type II subunit delta (CAMK2D, Homo sapiens, UniProt Q13557) | 99.9%
Phosphatidylinositol 4-phosphate 3-kinase C2 domain-containing subunit beta (PIK3C2B, Homo sapiens, UniProt O00750) | 73.6%
Leucine-rich repeat serine/threonine-protein kinase 2 (LRRK2, Homo sapiens, UniProt Q5S007, G2019S) | 100%
Serine/threonine-protein kinase NLK (NLK, Homo sapiens, UniProt Q9UBE8) | 100%
Phosphatidylinositol 3-kinase catalytic subunit type 3 (PIK3C3, Homo sapiens, UniProt Q8NEB9) | 98.7%
Serine/threonine-protein kinase B-raf (BRAF, Homo sapiens, UniProt P15056, V600E) | 100%
Phosphatidylinositol 4-kinase beta (PI4KB, Homo sapiens, UniProt Q9UBF8) | 97.6%
Mast/stem cell growth factor receptor Kit (KIT, Homo sapiens, UniProt P10721, D816V) | 95.8%
Serine/threonine-protein kinase B-raf (BRAF, Homo sapiens, UniProt P15056) | 92.3%
Tyrosine-protein kinase ABL1, non-phosphorylated (ABL1, Homo sapiens, UniProt P00519, F317L) | 100%
Serine/threonine-protein kinase WNK3 (WNK3, Homo sapiens, UniProt Q9BYP7) | 65.5%
Fibroblast growth factor receptor 4 (FGFR4, Homo sapiens, UniProt P22455) | 95.8%

Study 4
Target: Beta-1 adrenergic receptor (ADRB1, Homo sapiens, UniProt P08588)
UniProt P08588, sequence (whole entry, looked up): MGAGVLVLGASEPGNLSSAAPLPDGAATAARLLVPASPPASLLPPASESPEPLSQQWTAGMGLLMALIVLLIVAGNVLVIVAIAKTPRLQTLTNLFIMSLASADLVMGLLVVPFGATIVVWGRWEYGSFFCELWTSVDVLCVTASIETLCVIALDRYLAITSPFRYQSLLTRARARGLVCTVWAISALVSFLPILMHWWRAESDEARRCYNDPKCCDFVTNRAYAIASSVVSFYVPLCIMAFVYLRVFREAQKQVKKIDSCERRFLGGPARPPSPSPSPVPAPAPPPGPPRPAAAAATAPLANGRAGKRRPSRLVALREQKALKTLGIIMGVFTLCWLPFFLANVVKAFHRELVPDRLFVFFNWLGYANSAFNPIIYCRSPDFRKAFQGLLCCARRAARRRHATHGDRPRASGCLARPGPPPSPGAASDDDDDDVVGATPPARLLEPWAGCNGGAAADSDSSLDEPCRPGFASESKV
Mode: agonist
SMILES | EC50 [µM]
Clc1cccc(N2CCN(C3CCNCC3)CC2)c1 | ≥ 100
CCN1C(=O)COC[C@@H]1[C@H](O)c1ccc(NC(=O)CCc2ccccc2)cc1 | ≥ 100
OC(c1ccc2c(c1)CCO2)c1nc(Nc2ccccc2)n[nH]1 (stereo not shown) | ≥ 100
O=C(O)c1cc(-c2cccnc2)nc2c(Br)cccc12 | 8.91
c1ccc(-c2n[nH]c3ncc(-c4cn[nH]c4)nc23)cc1 | ≥ 100

Mixed results
SMILES | target or system | test | system | setting | endpoint | value
COc1ccc(-c2c(Nc3ccccn3)[nH]c3c(C4=CCCCC4)c(-c4ccccc4)nn3c2=O)cc1 |  |  | human, plasma | oral, 200 mg twice daily | dose-normalised Cmax | 69 ng/mL/mg and 60.5 ng/mL/mg and 75 ng/mL/mg
CN1CCN(CCOc2cc(OC3CCOCC3)c3c(Nc4c(Cl)ccc5c4OCO5)ncnc3c2)CC1 | Activin receptor type-2B (ACVR2B, Homo sapiens, UniProt Q13705) | Hsp90 client interaction, inhibitor, LUMIER | human cells | medium client | EC50 | 5 µM

Some of these lines once more (study 1):
Compound | log2 fold change
CC[C@H]1OC(=O)[C@H](C)[C@@H](O[C@H]2C[C@@](C)(OC)[C@@H](O)[C@H](C)O2)[C@H](C)[C@@H](O[C@@H]2O[C@H](C)C[C@H](N(C)C)[C@H]2O)[C@](C)(O)C[C@@H](C)CN(C)[C@H](C)[C@@H](O)[C@]1(C)O | -0.15
Nc1ccc(O)c(C(=O)O)c1 | 0.12
CN(C)[C@@H]1C(O)=C(C(=O)NCN2CCCC2)C(=O)[C@@]2(O)C(O)=C3C(=O)c4c(O)cccc4[C@@](C)(O)[C@H]3C[C@@H]12 | 0.09
